Measurements pooled from the literature.
Every numbered part comes from another study and shows a few of its results, in no order. ± gives the spread as reported.
Sequence of UniProt P21802 (whole entry, looked up): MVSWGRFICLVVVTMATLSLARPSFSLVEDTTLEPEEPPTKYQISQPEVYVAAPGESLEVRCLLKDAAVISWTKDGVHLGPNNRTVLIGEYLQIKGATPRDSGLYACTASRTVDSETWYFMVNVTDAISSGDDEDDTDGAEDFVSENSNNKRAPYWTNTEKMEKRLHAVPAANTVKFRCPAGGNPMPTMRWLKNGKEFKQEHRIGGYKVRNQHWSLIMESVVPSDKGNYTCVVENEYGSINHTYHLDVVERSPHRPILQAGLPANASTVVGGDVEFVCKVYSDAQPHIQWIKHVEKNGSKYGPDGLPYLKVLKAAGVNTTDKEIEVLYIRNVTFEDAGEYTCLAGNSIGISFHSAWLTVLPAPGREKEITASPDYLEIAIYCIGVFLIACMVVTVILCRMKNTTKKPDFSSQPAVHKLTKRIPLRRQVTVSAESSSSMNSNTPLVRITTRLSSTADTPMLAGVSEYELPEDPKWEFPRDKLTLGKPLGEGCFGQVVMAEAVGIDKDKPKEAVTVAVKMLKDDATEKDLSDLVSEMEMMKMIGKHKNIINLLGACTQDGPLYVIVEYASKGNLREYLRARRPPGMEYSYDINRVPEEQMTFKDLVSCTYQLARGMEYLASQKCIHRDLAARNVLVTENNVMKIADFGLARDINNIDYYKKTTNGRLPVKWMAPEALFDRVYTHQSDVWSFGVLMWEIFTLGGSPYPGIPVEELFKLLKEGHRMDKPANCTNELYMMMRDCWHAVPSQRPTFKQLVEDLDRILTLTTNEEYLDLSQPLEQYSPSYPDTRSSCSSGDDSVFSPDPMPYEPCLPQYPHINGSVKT

Block 1
Target: Ras GTPase-activating protein-binding protein 1, full length (G3BP1, Homo sapiens, UniProt Q13283)
Sequence of UniProt Q13283 (whole entry, looked up): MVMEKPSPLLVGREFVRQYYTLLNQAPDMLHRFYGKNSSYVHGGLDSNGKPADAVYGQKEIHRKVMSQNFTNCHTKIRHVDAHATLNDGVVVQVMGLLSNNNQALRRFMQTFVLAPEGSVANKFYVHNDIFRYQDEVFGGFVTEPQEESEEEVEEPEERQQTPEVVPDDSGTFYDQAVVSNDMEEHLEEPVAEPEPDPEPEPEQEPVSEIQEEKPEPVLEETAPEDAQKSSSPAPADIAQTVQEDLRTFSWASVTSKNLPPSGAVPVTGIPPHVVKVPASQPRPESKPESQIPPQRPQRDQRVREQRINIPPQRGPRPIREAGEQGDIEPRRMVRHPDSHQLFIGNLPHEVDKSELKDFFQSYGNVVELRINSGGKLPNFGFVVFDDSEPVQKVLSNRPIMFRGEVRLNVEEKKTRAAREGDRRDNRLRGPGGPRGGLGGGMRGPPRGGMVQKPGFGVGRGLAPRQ
Technique: RNA Bind-n-Seq
Form: RNA
Matrix: in vitro
Concentration: 200 nM
Setting: whole 134-nt RNA, ends assumed
With: 150 mM KCl
Relative to: input library
Reading: higher = stronger binding
Endpoint: log2 enrichment
All sequences stand within: GGGAGUUCUACAGUCCGACGAUC … UGGAAUUCUCGGGUGUCAAGG
UUCACAGGUAAGUGGGGCAGUGUCCGGACCAGUGGACGCAGCAGUGGCCUUGGCACCGAUGUGGGCUCCCGGCUAGCUGGCAGAGACGCG: -1.14
CCUCAAGUCCUGUGCUACACAUCGUAUGUACCGAAUCGGUUUGGAGGUUUGGAAAGUAUUAUGUUACGCCGUUCGGAUCUGCACUUCCAG: -0.25
CUCAAGUCCUGUGCUACACAUCGUAUGUACCGAAUCGGGUGGGAGGGUUUGGGAAAGUAUUAUGUUACGCCGUUCGGAUCUGCACUUCCA: 1.1
UCCUCAAGUCCUGUGCUACACAUCGUAUGUACCGAAUCGGCGGCGGCGGGGAAAGUAUUAUGUUACGCCGUUCGGAUCUGCACUUCCAGC: -0.13
CACAGACAACACGCACCCACACAGACACAGAGGGAAGGGGUUGUGAUGGGGACAGGGUGCACAGCAGGGCGGGGUAGGACCCCAGCCCCU: 1.45
AAGUCCUGUGCUACACAUCGUAUGUACCGAAUCGGAAAAAAAGGUGGUUUUUUUGGAAAGUAUUAUGUUACGCCGUUCGGAUCUGCACUU: -1.43
CAAGUCCUGUGCUACACAUCGUAUGUACCGAAUCGGUUUUUGGUUUUUGGAAAGGAAAGUAUUAUGUUACGCCGUUCGGAUCUGCACUUC: -1.11
CACAGACAACACGCACCCACACAGACACAGAGGGAAGGGGUUGGGAUGGGGACAGGGUGCACAGCAGGGCGGGGUAGGACCCCAGCCCCG: 1.86

Block 2
Target: Prothrombin, mature alpha-thrombin (F2, Homo sapiens, UniProt P00734)
Technique: aptamer microarray, sandwich
Form: DNA with 2'F-ANA
Matrix: in vitro
Concentration: 200 nM
Setting: whole 15-mer aptamer, many near background
With: Cy3 exosite-II aptamer, 400 nM
Reading: higher = stronger binding
Endpoint: mean fluorescence intensity
Strand: GGTTGGTGTGGTTGG
2'F-ANA at 1 2 5 6 7 8 10 12: 51.1 a.u.
2'F-ANA at 4 5 8 10 11 12 15: 64.7 a.u.
2'F-ANA at 2 3 9 10 14: 295 a.u.
2'F-ANA at 1 3 7 8 9 11 12 13 15: 373 a.u.
2'F-ANA at 3 6 7 10: 557 a.u.
2'F-ANA at 2 3 4 6 7 10 15: 240 a.u.
2'F-ANA at 1 2 5 6 7 9 10 11 12 14: 96.7 a.u.
2'F-ANA at 4 6 9 11 12 15: 353 a.u.

Further values, each from its own experiment
Oc1cccc(-c2nc(N3CCOCC3)c3oc4ncccc4c3n2)c1
remaining activity (FGFR2 (Homo sapiens, UniProt P21802); enzyme activity, inhibitor; 0.5 µM; relative to: control): 95.7%

COc1cc(C(=O)N2CCC(N3CCN(C)CC3)CC2)ccc1Nc1ncc2c(n1)N(C)c1ccccc1C(=O)N2C
remaining activity (LCK; kinase activity; 1 µM): 106 ± 13%

A few entries again (block 2):
2'F-ANA at 3 6 7 10: 557 a.u.
